Results collected from several papers.
Each line is one published result; not all experiments were run side by side. Values joined by “and” are separate records of one study, mostly repeats; a detail may differ. Numbers after ± are the reported error.
CAMK4: Calcium/calmodulin-dependent protein kinase type IV (CAMK4, Homo sapiens, UniProt Q16566)
MT-CYB/UQCRFS1: MT-CYB/UQCRFS1 (Homo sapiens, UniProt P00156+P47985)
UniProt P00156, sequence (whole entry, looked up): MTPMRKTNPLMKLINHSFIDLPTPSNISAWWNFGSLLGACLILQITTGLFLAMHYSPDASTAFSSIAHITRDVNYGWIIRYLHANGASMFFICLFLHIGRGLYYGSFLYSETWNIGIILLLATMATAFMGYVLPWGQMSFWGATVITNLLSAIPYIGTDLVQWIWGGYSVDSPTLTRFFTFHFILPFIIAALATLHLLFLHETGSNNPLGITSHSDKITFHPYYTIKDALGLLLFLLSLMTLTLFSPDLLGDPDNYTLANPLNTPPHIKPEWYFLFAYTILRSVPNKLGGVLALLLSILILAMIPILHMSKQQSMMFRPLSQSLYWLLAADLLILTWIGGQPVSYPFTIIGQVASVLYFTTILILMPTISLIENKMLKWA
UniProt P47985, sequence (whole entry, looked up): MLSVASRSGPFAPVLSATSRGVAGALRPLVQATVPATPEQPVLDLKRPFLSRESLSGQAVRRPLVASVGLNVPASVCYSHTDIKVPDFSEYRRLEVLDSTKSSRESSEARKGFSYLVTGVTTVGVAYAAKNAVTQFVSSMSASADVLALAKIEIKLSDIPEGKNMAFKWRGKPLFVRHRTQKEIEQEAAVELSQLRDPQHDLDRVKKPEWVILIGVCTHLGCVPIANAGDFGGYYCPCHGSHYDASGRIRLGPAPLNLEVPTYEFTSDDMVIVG
Dehaloperoxidase B ferric: Dehaloperoxidase B, ferric (Amphitrite ornata, UniProt Q9NAV7)
UniProt Q64663, sequence (whole entry, unmodified, looked up): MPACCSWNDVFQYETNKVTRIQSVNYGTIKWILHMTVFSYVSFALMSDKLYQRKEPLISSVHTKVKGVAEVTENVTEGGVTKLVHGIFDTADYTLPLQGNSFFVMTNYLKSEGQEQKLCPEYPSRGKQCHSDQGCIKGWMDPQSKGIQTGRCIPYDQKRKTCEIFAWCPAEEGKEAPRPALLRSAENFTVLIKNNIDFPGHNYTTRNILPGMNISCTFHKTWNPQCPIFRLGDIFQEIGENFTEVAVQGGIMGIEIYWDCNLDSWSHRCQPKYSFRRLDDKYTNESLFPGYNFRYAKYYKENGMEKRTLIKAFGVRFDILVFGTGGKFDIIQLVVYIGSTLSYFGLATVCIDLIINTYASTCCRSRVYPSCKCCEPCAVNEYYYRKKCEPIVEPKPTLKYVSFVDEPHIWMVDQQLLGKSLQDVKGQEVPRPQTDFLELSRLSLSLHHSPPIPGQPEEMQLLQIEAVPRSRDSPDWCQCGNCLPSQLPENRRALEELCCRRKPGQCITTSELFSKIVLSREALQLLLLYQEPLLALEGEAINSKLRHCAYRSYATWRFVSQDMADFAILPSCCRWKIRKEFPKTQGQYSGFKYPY
UniProt Q16774, sequence (whole entry, unmodified, looked up): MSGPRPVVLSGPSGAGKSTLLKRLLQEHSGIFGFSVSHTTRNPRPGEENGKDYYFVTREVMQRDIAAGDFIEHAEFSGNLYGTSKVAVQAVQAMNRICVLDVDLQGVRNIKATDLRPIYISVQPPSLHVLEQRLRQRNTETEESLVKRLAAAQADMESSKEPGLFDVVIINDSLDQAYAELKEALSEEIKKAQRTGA
UniProt P61619, sequence (whole entry, looked up): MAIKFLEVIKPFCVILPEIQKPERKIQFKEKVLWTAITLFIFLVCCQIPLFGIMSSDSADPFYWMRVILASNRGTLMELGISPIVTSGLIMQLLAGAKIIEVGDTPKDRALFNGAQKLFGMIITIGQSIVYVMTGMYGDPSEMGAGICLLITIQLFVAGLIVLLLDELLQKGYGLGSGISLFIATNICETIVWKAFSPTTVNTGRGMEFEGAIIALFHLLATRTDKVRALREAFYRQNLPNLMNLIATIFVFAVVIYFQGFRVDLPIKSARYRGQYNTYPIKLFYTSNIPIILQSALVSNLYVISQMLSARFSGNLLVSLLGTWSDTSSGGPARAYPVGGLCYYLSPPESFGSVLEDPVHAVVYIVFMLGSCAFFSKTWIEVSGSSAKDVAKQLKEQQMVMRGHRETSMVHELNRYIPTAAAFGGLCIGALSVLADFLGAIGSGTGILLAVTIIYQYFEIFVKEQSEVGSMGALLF
UniProt P11388, sequence (whole entry, looked up): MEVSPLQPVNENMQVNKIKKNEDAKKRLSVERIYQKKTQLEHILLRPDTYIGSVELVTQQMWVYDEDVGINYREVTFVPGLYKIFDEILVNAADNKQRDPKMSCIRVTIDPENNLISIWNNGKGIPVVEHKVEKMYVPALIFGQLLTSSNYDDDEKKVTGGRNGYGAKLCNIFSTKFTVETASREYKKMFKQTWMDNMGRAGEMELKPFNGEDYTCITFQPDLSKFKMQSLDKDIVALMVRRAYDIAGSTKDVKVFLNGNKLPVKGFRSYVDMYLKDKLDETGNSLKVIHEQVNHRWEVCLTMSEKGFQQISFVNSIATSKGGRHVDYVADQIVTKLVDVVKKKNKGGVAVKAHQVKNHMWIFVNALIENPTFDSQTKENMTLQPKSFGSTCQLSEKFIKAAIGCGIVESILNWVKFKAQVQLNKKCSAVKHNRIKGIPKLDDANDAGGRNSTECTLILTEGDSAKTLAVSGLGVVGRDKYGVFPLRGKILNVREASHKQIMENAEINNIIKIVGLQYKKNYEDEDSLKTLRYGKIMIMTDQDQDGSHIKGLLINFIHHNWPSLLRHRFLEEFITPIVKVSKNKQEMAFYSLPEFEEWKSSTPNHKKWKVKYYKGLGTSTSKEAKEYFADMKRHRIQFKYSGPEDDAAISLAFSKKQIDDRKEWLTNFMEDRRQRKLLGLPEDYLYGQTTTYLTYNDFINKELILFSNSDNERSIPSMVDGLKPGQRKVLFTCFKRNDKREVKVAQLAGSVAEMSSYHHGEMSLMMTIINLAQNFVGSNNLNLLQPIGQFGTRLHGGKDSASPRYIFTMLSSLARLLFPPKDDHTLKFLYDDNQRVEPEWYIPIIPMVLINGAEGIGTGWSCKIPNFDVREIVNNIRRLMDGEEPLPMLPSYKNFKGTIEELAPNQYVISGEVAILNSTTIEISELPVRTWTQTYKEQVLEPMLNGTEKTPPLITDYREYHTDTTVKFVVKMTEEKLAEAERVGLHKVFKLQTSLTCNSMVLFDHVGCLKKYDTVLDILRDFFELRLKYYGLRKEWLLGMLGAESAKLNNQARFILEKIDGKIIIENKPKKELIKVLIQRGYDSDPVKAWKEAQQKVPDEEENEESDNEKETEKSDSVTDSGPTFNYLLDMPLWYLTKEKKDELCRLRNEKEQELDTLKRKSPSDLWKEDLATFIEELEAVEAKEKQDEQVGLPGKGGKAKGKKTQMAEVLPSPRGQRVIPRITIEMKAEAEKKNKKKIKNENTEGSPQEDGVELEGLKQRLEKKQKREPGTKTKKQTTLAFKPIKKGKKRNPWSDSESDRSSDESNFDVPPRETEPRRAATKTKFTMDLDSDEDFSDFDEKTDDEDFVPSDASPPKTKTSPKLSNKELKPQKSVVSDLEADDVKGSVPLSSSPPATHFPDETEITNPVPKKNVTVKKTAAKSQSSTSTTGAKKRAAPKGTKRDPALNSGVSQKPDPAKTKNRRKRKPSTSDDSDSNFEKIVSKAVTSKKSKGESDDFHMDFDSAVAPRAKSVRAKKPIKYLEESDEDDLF
UniProt Q14145, sequence (whole entry, unmodified, looked up): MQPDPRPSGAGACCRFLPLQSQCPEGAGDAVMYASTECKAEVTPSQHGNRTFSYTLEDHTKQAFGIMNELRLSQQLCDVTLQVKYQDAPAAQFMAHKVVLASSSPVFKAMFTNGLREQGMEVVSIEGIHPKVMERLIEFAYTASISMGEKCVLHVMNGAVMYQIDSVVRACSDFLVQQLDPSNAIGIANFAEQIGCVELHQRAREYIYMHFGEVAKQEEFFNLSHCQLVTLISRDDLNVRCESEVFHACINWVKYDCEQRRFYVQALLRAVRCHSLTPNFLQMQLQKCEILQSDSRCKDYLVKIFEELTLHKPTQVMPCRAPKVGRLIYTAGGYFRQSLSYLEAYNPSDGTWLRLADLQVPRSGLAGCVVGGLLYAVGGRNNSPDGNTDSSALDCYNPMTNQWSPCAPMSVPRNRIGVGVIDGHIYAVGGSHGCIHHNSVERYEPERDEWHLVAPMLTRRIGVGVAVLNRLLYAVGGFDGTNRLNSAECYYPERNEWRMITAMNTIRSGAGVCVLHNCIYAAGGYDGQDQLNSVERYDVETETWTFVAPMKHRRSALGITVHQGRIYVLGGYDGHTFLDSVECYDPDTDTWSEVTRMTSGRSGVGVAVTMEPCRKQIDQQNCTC
UniProt Q62351, sequence (whole entry, looked up): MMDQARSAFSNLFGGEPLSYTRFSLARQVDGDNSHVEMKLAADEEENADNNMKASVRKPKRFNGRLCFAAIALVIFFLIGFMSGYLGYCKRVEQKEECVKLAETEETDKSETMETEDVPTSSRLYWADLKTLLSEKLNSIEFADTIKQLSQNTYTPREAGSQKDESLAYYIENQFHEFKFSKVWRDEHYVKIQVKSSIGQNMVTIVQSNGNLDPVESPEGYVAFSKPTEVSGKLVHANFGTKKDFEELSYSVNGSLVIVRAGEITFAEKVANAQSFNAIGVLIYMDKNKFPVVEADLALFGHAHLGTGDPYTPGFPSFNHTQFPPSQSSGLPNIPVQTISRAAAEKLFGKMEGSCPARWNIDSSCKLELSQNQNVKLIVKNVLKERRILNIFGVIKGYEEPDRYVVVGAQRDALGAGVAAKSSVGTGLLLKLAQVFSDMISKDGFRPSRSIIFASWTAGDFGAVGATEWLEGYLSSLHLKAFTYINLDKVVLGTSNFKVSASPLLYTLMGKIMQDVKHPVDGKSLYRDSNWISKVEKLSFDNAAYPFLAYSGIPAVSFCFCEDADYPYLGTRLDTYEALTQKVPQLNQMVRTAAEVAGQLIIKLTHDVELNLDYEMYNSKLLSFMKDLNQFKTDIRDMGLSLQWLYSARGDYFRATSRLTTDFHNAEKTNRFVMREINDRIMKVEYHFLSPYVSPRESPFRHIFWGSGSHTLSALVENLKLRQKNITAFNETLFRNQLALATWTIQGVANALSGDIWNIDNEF
UniProt P00441, sequence (whole entry, unmodified, looked up): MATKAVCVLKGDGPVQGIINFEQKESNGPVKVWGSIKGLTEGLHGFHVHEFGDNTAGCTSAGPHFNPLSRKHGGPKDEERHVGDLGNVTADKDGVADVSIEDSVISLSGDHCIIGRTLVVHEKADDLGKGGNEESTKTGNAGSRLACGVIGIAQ

| SMILES | target | test | test system | conditions | scale | quantity | value |
| --- | --- | --- | --- | --- | --- | --- | --- |
| CC[C@H](C)[C@H](NC(=O)[C@@H]1CCCN1C(=O)[C@H](CC(C)C)NC(=O)[C@H](Cc1ccccc1)NC(=O)[C@H](CCC(=O)O)NC(=O)CNC(=O)[C@@H](NC(=O)[C@H](CCC(=O)O)NC(=O)[C@H](CCC(=O)O)NC(=O)[C@H](CC(=O)O)NC(=O)[C@H](CC(C)C)NC(=O)[C@H](CCC(N)=O)NC(=O)[C@H](CC(C)C)NC(=O)[C@H](CCC(N)=O)NC(=O)[C@H](C)NC(=O)[C@H](Cc1ccccc1)NC(C)=O)[C@@H](C)O)C(=O)N[C@@H](CCC(N)=O)C(=O)N1CCC[C@H]1C(=O)N[C@@H](C)C(=O)N[C@@H](CCC(N)=O)C(N)=O | Kelch-like ECH-associated protein 1, Kelch domain (KEAP1, Homo sapiens, UniProt Q14145) | binding, ITC | – | pH 7, 298.15 K | – | ΔG | -10.38 ± 0.03 kcal/mol |
| Cc1cc(NS(=O)(=O)c2ccc(N=NN(O)c3ccccc3)cc2)no1 | α-glucosidase, rat intestine | enzyme activity | – | 60 µg/mL, with: 4-nitrophenyl α-D-glucopyranoside | – | inhibition | 20 ± 1.55% |
| O=c1nc(SCc2cc(F)cc(C(F)(F)F)c2)nc(SCc2ccc3nc(Cl)ccc3c2)[nH]1 | TOP2A (Homo sapiens, UniProt P11388) | ATPase activity | – | 15.6 µM, with: ATP 0.25 mM | – | ATP hydrolysis rate | 0.944 µM/min and 1.38 µM/min |
| CC(C)CC(=O)N[C@H](C(=O)N[C@H](C(=O)N[C@@H](CC(C)C)[C@@H](O)CC(=O)N[C@@H](C)C(=O)N[C@@H](CC(C)C)[C@@H](O)CC(=O)NCCCC[C@H](NC(=O)CCOCCOCCNC(=O)CN1CCN(CC(=O)O)CCN(CC(=O)O)CC1)C(=O)O)C(C)C)C(C)C | Cathepsin D (CTSD, Homo sapiens, UniProt P07339) | surface plasmon resonance | – | – | – | association rate constant | 333 M⁻¹ s⁻¹ |
| CC[C@@H](C)[C@@H](NC(=O)[C@@H](Cc1ccc(O)cc1)NC(=O)[C@H]1CCCN1C(=O)[C@@H](CCCNC(=N)N)NC(=O)[C@H](N)Cc1c[nH]cn1)C(=O)N[C@H](C)C(=O)N[C@H](Cc1c[nH]cn1)C(=O)N[C@H](CCCNC(=N)N)C(=O)N[C@@H](C(=O)N[C@H](Cc1ccc(O)cc1)C(=O)N[C@H](CO)C(=O)N[C@H](Cc1ccccc1)C(N)=O)C(C)C | Transferrin receptor protein 1 (Tfrc, Mus musculus, UniProt Q62351) | flow cytometry | B16 | 6 h, unit not given | baseline: 0 h | surface expression | 0.667 and 0.668 |
| COc1cc(-c2cncc3c2CN(C)Cc2cc(N4CCNCC4)ccc2-3)cc(OC)c1OC | CAMK4 | kinase activity | – | 1 µM, human enzyme, with: ATP 10 µM | baseline: DMSO control | remaining activity | 107% |
| CC[C@@H]1[C@H](F)C(=O)N[C@@H]1COc1nccc2cc(C(N)=O)c(OC)cc12 | CAMK4 | ATP-site probe binding, ActivX profiling | THP-1 cell lysate | 0.01 mM, Lys2 site | – | inhibition | 25.8% |
| Oc1ccccc1-c1n[nH]cc1-c1ccnc2ccccc12 | TGFBR1 (Homo sapiens, UniProt P36897) | enzyme activity, radiometric kinase | – | – | baseline: LY selectivity fungal over TGFBR1 | selectivity improvement | > 40 fold |
| CN(C)C(=O)C(CCN1CCC(O)(c2ccc(Cl)cc2)CC1)(c1ccccc1)c1ccccc1 | Calcium-activated potassium channel subunit alpha-1, with LRRC26 γ1 subunit (KCNMA1, Homo sapiens, UniProt Q12791) | BK current, inhibitor, inside-out patch clamp | excised membrane patch | 3 µM, γ1 coexpressed, individual fits, with: nominally 0 Ca2+ cytosolic | baseline: without loperamide | normalized Gmax | 0.456 ± 0.055 |
| NC(=O)NOCCCCCCCCCCCCCCCC[P+](c1ccccc1)(c1ccccc1)c1ccccc1.O=C([O-])C(F)(F)F | MT-CYB/UQCRFS1 | complex III-dependent respiration, Seahorse XF96 | HCT-116 | 0.8 µM, 24 h | baseline: control | oxygen consumption rate | 68.5% |
| CCN(CCO)CCCC(C)Nc1ccnc2cc(Cl)ccc12 (stereo not drawn) | Protein transport protein Sec61 subunit alpha isoform 1 (Homo sapiens, UniProt P61619) | reporter gene, inhibitor, dual luciferase | HEK293 with SP-CD4-FLuc reporter | concentration not given | – | FLuc/RLuc ratio | 6.16 and 5.34 and 5.42 and 6.6 |
| O=c1[nH]c(-c2ccccn2)nc2c1CSCC2 | Protein lin-28 homolog A (Mus musculus, UniProt Q8K3Y3) | – | – | – | – | Hill slope | -1.1 |
| CN1CCN(c2cc(-c3ccncc3)c(-c3ccc4ccccc4c3)nn2)CC1 | BDKRB2 (Homo sapiens, UniProt P30411) | agonist, FLIPR | – | 12.5 µM | – | activation | -1.3% |
| CCCCC[S+]([O-])c1n[nH]c(N)n1 (stereo not drawn) | YTHDF2 (Homo sapiens, UniProt Q9Y5A9) | binding, affinity selection mass spectrometry | – | – | baseline: other proteins in batch | fold enrichment | 1.49 |
| NCCS(=O)(=O)O | SLC6A6 (Homo sapiens, UniProt P31641, S402A) | binding, microscale thermophoresis | – | 500 µM, room temperature, with: 50 nM labelled protein | higher = more binding | normalised MST signal | 0.0294 |
| CC1=C(/C=C/C(C)=C/C=C/C(C)=C/C=O)C(C)(C)CCC1 | Rhodopsin (RHO, Bos taurus, UniProt P02699, F273W) | retinal entry, Trp FRET | lipid bicelles | 28 °C, F273W mutant | baseline: wild-type rhodopsin | relative kon | 2.6 ± 0.24 |
| Nc1ncnc2c1ncn2[C@@H]1O[C@H](COP(=O)(O)OP(=O)(O)OP(=O)(O)O)[C@@H](O)[C@H]1O | P2X purinoceptor 7 (P2rx7, Rattus norvegicus, UniProt Q64663, R125A) | ion current, agonist, two-electrode voltage clamp | Xenopus laevis oocytes | 18.52 µM | baseline: highest concentration response | normalized current | 0.223 and 0.323 and 0.208 |
| O=C(CCCCCCC(=O)Nc1ccccc1)NO | HDAC8 (Homo sapiens, UniProt Q9BY41) | ITC | Tris-HCl buffer | 278 K | – | TΔS° | 1.99 kcal/mol |
| NC(=O)NOCCCCCCCCCCCCCCCCCCCC[P+](c1ccccc1)(c1ccccc1)c1ccccc1.O=C([O-])C(F)(F)F | MT-CYB/UQCRFS1 | complex III-dependent respiration, Seahorse XF96 | HCT-116 | 3 µM, 24 h | baseline: control | oxygen consumption rate | 60.3% |
| O=C(O)/C=C/c1ccc(O)c(O)c1 | KEAP1 (Homo sapiens, UniProt Q14145) | native mass spectrometry | – | 1:5 protein:compound ratio, 30 min | – | dimer abundance | increased |
| Nc1nc2c(ncn2[C@@H]2O[C@H](COP(=O)(O)O)[C@@H](O)[C@H]2O)c(=O)[nH]1 | GUK1 (Homo sapiens, UniProt Q16774, R41A) | enzyme activity, NADH-coupled | – | 1000 µM | – | reaction rate | 0.977 s⁻¹ and 0.773 s⁻¹ and 0.758 s⁻¹ |
| CC(=C/C(=O)O)/C=C/C=C(\C)C1C=C2C(C)(C)CCCC2(C)O1 (stereo not drawn) | Rhodopsin (RHO, Homo sapiens, UniProt P08100, P23H) | ER retention, immunostaining co-localization, refers to: opsin with calnexin | COS-7 transfected P23H | 0.05 µM | – | Pearson correlation coefficient | 0.77 |
| O=C(COP(=O)(O)O)[C@@H](O)[C@H](O)[C@H](O)COP(=O)(O)O | GAPDH (Homo sapiens, UniProt P04406) | thermal proteome profiling | HepG2 cell lysate | concentration not given, 57 over 37 °C, mean | baseline: compound over control | thermal stability ratio | 3.71 |
| CC(=O)Nc1ccc(O)cc1 | BRD4 (Homo sapiens, UniProt O60885) | 19F NMR, refers to: tyrosine 118 | – | 188 µM | baseline: free protein | chemical shift change | -0.086 ppm |
| O=CNc1ccc(Br)cc1C=O | Dehaloperoxidase B ferric | product, HPLC | – | with: 5-bromoindole 500 µM, H2O2 1000 µM | – | share of total products | 0.5% |
| [O-][S+]1CCCCS1 (stereo not drawn) | SOD1 (Homo sapiens, UniProt P00441, G94A) | intact protein LC-MS | SOD1 G93A transgenic mice, whole blood | intravenous, 10 mg/kg, 8 h, mean of two mice | – | target engagement | 49.7% |
| NC(=O)NO | MT-CYB/UQCRFS1 | complex III-dependent respiration, Seahorse XF96 | HCT-116 | 30 µM, 24 h | baseline: control | oxygen consumption rate | 81.2 ± 3.91% |
| Cc1cccc(N(O)N=Nc2ccc(S(=O)(=O)Nc3onc(C)c3C)cc2)c1 | α-glucosidase, rat intestine | enzyme activity | – | 180 µg/mL, with: 4-nitrophenyl α-D-glucopyranoside | – | inhibition | 30 ± 0.04% |
| O=C1Nc2ccc(Br)cc2C1O (stereo not drawn) | Dehaloperoxidase B ferric | product, HPLC | – | with: 5-bromoindole 500 µM, H2O2 1000 µM | – | share of total products | 3.8% |
| N[C@H]1[C@H](O[C@H]2[C@H](O)[C@@H](N)[C@H](O[C@H]3[C@H](O)[C@@H](N)[C@H](O[C@H]4[C@H](O)[C@@H](N)[C@H](O[C@H]5[C@H](O)[C@@H](N)C(O)O[C@@H]5CO)O[C@@H]4CO)O[C@@H]3CO)O[C@@H]2CO)O[C@H](CO)[C@@H](O)[C@@H]1O (stereo partly drawn) | LysM receptor-like kinase (Brachypodium distachyon, UniProt A0A0Q3FRN3) | radioligand binding, competition binding | membrane fractions | 2 µM, with: radiolabelled LCO-V(C18:1,NMe) | – | competition of LCO binding | 7% and 5.27% and 0.0913% |
